Measured values gathered from unrelated publications.
Each line is one published result; not all experiments were run side by side. ± gives the spread as reported.

| Compound | target | test | system | conditions | how to read | endpoint | value |
| --- | --- | --- | --- | --- | --- | --- | --- |
| C/C=C1\C(=O)C[C@H]2[C@@H]3CCC4=CC(=O)CC[C@]4(C)[C@H]3CC[C@]12C | human FXR | reporter gene | HEK293 FXR-bla cells | concentration not given |  | activity | inactive |
| Oc1ccc(-c2ccc(Cl)cc2)c(Cl)c1 | gap junction, rat | gap junctional communication, scrape loading dye transfer | WB-F344 rat liver epithelial | 1 h |  | IC25 | 15 µM |
| N[C@@H](Cc1c[nH]c2ccccc12)C(=O)O | tryptophan indole-lyase Escherichia coli | substrate, biochemical |  |  |  | kcat/Km | 7000 M⁻¹ s⁻¹ |
| C#Cc1nc(C(=O)N2CCC(NC(=O)c3cnc(-c4ccccc4)s3)(c3nc4ccccc4n3C)CC2)cs1 | STING (mouse) | inhibitor, RT-qPCR | iBMDMs | concentration not given, 2 h, added: 500 nM diABZI |  | IFNβ mRNA level | inhibited |
| O=C1c2ccccc2C(=O)C1C(=O)C(c1ccccc1)c1ccccc1 | human FXR | reporter gene | HEK293 FXR-bla cells | concentration not given |  | activity | inactive |
| C[C@]1(CO)Cc2ncn(-c3ccc(C#N)c(Cl)c3)c2C(=O)O1 | aldosterone synthase | inhibitor | human, plasma | 80 mg, days 14 and 15, European multiple ascending dose | baseline: baseline | plasma 11-deoxycortisol | increased |
| CCC(=O)OCCc1ccccc1 | Aedes aegypti OR15/Orco | agonist, two-electrode voltage clamp | Xenopus oocytes |  |  | EC50 | 20.2 µM |
| Oc1ccc(-c2nc(-c3ccncc3)c(-c3ccc(F)cc3)[nH]2)cc1 | p38 MAPK (human) | inhibitor, RT-PCR, item: SOCS3 mRNA | UT7/EPO | concentration not given, 1 h, added: rHuEPO |  | inhibition | 20 to 30% |
| Clc1ccc(Cl)c(-c2ccccc2Cl)c1 | gap junction, rat | gap junctional communication, scrape loading dye transfer | WB-F344 rat liver epithelial | 1 h |  | IC50 | 12 µM |
| CC(C)(C)C(=O)C1C(=O)c2ccccc2C1=O | human FXR | reporter gene | HEK293 FXR-bla cells | concentration not given |  | activity | inactive |
| Clc1cccc(-c2cccc(Cl)c2)c1 | gap junction, rat | gap junctional communication, scrape loading dye transfer | WB-F344 rat liver epithelial | 1 h |  | IC50 | 27 µM |
| O=C(Nc1cccnn1)N1CCN([C@@H]2CCOc3cc(C(F)(F)F)ccc32)CC1 | neuronal nicotinic receptor alpha4beta2 | binding |  | 20 µM, alpha-bungarotoxin-insensitive |  | inhibition | 8% |
| CC(=O)N[C@@H](CSCCC=O)C(=O)O | porcine kidney aminoacylase 1 | substrate |  | without Co2+ |  | kcat | 0.01 s⁻¹ |
| Clc1ccc(-c2ccc(Cl)cc2Cl)cc1 | gap junction, rat | gap junctional communication, scrape loading dye transfer | WB-F344 rat liver epithelial | 1 h |  | IC50 | 22 µM |
| O=C1Nc2ccc3ncsc3c2/C1=C/c1cnc[nH]1 | human TRPM8 |  | HEK293 | 5 µM, 24 h | baseline: control | remaining activity | 100 ± 9.09% |
| CCOP(=O)(OCC)Oc1nc(Cl)c(Cl)cc1Cl | carboxylesterase (mouse) |  | PON1 knockout mouse, liver | dermal, 0.75 mg/kg, 4 h |  | inhibition | 8% |

| Compound | target | test | system | conditions | how to read | endpoint | value |
| --- | --- | --- | --- | --- | --- | --- | --- |
| O=c1[nH]c2ccccc2n1C1CCN(Cc2ccc(-c3[nH]c4cc5ncnc5cc4nc3-c3ccccc3)cc2)CC1 | human TRPM8 |  | HEK293 | 5 µM, 24 h | baseline: control | remaining activity | 95.9 ± 8.79% |
| CCn1c(-c2nc3cc(C(=O)N4CCC[C@@H](N)C4)cc(OC)c3n2C)cc2cccnc21 | PAD4 | immunoblot | human neutrophils | 10 µM, added: A23187 or Staphylococcus aureus stimulation |  | protein citrullination | inhibited |
| Oc1cc(Cl)cc(-c2cccc(Cl)c2)c1 | gap junction, rat | gap junctional communication, scrape loading dye transfer | WB-F344 rat liver epithelial | 1 h |  | IC25 | 25 µM |
| COc1ccc(N2C(=O)N(c3c(C)cccc3Cl)Cc3cnc(Nc4ccc(C5CCN(C)CC5)cc4OC)nc32)nc1 | COT1, human | kinase activity |  | 0.5 µM |  | inhibition | 2.55% |
| O=C1c2ccccc2-[n+]2ccc3c([nH]c4ccccc43)c21 | human TRPM8 |  | HEK293 | 5 µM, 24 h | baseline: control | remaining activity | 96.1 ± 3.2% |
| CCC(C)Nc1c([N+](=O)[O-])cc(C(C)(C)C)cc1[N+](=O)[O-] (centres unmarked) | anti-cpd monoclonal antibody, mouse | indirect competitive ELISA |  | concentration not given | baseline: target IC50 over cpd IC50 | cross-reactivity | 100% |
| Cc1ccccc1OP(=O)(Oc1ccccc1C)Oc1ccccc1C | carboxylesterase (mouse) | inhibitor | PON1+/+ mice, liver | dermal, 10 mg/kg, 24 h |  | carboxylesterase inhibition | inhibited |
| CO/N=C1\C[C@]2(C[C@@H]3C[C@@H](C/C=C(\C)C[C@@H](C)/C=C/C=C4\CO[C@@H]5[C@H](O)C(C)=C[C@@H](C(=O)O3)[C@]45O)O2)O[C@H](/C(C)=C/C(C)C)[C@H]1C | human FXR |  | HEK293 cells |  |  | IC50 | 16.7 ± 7.7 µM |
| c1ccc(C(NCCNC(c2ccccc2)c2ccccc2)c2ccccc2)cc1 | GABAA chloride channel, rat | binding |  | 10 µM, Eurofins selectivity panel, added: TBOB |  | inhibition | 37% |
| N[C@@H](CCC(=O)O)C(=O)O | rat kainate glutamate receptor | radioligand binding |  |  |  | IC50 | 0.16 µM |
| c1cncc([C@@H]2CCCN2)c1 | sigma receptor 2 | radioligand binding |  | 50 µM |  | inhibition | -1.59% |
| Clc1ccc(-c2cc(Cl)ccc2Cl)cc1 | gap junction, rat | gap junctional communication, scrape loading dye transfer | WB-F344 rat liver epithelial | 1 h |  | IC25 | 13 µM |
| COc1ncccc1-c1cnn2ccc(N3CCN(C(=O)OC(C)C)CC3)nc12 | L-type calcium channel | inhibitor |  |  |  | IC50 | 12 µM |
| C[C@H](CCCC(C)(C)O)[C@H]1CC[C@H]2[C@@H]3CC=C4C[C@@H](O)CC[C@]4(C)[C@H]3CC[C@]12C | NMDA receptor, rat | peak ion current, potentiator | rat hippocampal neurons | 10 µM, added: NMDA 10 µM, co-applied |  | potentiation | 20.4 ± 5.3% |
| O=[N+]([O-])c1ccc(Cl)c([N+](=O)[O-])c1 | 12 recombinant human hepatic cytosolic GSTs | GST enzyme activity, substrate, spectrophotometry |  | 1 mM, 6 min, 30 °C, added: GSH 1 mM |  | activity class | active |
| CCC(C)(C)c1ccc(O)cc1 | HBV core protein Cp149 dimer | solution NMR |  | 4 molar equivalents, pH 7.5, 295 K, average over eight residues | baseline: apo Cp149 dimer | average chemical shift perturbation | 0.046 ppm |

Repeated from above:
| Compound | target | test | system | conditions | how to read | endpoint | value |
| --- | --- | --- | --- | --- | --- | --- | --- |
| O=C1Nc2ccc3ncsc3c2/C1=C/c1cnc[nH]1 | human TRPM8 |  | HEK293 | 5 µM, 24 h | baseline: control | remaining activity | 100 ± 9.09% |
| CCOP(=O)(OCC)Oc1nc(Cl)c(Cl)cc1Cl | carboxylesterase (mouse) |  | PON1 knockout mouse, liver | dermal, 0.75 mg/kg, 4 h |  | inhibition | 8% |
